Measurements pooled from the literature.
Lines come from different studies, so protocols differ.
UniProt Q86UE8, sequence (whole entry, looked up): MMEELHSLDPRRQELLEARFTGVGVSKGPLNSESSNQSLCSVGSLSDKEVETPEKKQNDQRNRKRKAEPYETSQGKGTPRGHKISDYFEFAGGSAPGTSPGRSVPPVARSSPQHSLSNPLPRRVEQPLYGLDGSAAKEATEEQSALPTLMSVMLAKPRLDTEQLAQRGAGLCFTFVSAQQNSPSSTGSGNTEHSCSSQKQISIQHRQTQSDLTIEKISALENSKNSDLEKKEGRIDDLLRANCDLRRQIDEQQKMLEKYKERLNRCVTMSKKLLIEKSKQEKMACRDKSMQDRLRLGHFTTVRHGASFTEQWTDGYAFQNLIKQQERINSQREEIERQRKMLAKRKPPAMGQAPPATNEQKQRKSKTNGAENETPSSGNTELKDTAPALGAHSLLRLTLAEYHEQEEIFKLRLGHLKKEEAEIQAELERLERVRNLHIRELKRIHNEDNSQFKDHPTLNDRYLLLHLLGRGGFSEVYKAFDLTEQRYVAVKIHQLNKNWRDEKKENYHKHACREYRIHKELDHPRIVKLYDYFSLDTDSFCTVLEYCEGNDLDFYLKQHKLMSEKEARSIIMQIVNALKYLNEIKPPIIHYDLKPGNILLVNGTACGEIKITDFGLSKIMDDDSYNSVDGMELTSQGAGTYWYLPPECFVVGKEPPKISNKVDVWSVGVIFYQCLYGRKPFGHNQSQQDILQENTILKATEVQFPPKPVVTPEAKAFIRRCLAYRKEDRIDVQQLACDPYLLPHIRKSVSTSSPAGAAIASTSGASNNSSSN
UniProt P35590, sequence (whole entry, looked up): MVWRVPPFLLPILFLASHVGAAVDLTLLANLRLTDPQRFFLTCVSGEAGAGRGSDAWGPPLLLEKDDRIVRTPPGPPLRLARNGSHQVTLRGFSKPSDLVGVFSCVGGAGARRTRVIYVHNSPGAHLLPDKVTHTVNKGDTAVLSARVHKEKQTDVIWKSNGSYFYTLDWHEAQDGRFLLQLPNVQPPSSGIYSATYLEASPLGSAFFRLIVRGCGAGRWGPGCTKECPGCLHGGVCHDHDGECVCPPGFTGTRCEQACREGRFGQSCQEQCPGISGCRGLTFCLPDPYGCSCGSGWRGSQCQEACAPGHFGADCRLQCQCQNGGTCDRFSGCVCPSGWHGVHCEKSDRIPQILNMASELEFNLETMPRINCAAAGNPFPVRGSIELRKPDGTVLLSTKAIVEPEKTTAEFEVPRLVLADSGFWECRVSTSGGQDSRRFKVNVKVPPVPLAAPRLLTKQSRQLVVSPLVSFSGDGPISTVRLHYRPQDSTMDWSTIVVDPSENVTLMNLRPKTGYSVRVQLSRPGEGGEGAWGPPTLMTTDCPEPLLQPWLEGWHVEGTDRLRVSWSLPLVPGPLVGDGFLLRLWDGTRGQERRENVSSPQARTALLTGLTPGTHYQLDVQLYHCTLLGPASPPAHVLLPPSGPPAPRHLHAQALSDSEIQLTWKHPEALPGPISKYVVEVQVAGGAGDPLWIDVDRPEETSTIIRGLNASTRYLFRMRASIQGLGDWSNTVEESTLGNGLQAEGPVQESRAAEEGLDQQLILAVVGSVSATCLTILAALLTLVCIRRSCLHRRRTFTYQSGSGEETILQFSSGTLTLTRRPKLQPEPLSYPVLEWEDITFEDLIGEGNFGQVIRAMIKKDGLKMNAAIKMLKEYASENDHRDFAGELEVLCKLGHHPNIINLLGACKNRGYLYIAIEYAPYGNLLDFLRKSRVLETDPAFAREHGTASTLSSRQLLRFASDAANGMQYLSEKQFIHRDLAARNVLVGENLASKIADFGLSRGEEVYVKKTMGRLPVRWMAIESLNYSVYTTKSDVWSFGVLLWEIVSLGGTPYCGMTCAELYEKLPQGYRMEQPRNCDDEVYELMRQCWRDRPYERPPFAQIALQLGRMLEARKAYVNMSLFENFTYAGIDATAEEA
UniProt Q00536, sequence (whole entry, looked up): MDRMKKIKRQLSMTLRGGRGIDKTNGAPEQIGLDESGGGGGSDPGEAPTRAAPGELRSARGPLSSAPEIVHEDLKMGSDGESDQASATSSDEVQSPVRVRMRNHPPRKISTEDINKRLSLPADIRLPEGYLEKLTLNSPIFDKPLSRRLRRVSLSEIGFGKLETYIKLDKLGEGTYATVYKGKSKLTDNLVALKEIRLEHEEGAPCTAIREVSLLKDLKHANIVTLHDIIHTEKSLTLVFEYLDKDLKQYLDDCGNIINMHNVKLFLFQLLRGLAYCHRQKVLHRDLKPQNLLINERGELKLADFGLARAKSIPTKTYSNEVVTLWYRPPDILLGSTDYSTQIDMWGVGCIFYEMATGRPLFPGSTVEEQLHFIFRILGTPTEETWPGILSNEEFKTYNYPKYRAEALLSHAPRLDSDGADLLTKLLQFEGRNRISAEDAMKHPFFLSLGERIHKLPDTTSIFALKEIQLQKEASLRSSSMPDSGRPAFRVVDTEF
UniProt P54753, sequence (whole entry, looked up): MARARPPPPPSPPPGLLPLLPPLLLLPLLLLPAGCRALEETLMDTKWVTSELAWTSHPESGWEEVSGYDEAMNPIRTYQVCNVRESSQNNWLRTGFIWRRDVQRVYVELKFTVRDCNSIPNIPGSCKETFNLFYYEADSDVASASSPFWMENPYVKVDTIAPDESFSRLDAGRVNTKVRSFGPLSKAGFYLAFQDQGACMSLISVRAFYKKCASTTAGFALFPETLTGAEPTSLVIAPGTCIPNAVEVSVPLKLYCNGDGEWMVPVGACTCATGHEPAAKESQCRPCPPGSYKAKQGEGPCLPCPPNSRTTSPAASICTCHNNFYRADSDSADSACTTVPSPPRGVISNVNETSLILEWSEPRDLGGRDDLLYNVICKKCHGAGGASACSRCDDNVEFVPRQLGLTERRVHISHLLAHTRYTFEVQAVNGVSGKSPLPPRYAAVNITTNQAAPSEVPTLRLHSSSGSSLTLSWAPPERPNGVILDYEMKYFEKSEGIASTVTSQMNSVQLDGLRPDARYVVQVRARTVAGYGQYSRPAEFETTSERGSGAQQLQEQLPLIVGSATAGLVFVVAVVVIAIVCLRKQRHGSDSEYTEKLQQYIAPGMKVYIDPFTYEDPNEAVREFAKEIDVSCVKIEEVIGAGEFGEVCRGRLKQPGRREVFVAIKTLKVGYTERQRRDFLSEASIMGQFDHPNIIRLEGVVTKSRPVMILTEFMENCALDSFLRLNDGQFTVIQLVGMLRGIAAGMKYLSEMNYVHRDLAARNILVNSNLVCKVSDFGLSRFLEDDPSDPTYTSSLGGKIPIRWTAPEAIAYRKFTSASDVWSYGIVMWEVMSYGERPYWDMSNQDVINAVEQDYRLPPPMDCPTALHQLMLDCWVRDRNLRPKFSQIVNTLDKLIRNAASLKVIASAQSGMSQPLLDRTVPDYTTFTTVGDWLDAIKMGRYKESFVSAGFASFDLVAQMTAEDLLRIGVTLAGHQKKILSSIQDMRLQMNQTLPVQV
UniProt P48039, sequence (whole entry, looked up): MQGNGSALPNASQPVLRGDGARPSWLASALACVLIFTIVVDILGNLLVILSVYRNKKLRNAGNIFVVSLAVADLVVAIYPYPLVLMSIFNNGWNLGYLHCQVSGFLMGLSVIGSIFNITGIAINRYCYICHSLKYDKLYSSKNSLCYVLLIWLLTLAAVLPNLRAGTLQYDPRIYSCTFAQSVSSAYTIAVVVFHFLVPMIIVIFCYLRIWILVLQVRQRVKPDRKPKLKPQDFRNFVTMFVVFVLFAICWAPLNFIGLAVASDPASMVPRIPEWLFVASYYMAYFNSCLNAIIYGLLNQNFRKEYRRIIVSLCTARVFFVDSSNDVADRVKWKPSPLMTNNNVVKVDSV
UniProt P49286, sequence (whole entry, looked up): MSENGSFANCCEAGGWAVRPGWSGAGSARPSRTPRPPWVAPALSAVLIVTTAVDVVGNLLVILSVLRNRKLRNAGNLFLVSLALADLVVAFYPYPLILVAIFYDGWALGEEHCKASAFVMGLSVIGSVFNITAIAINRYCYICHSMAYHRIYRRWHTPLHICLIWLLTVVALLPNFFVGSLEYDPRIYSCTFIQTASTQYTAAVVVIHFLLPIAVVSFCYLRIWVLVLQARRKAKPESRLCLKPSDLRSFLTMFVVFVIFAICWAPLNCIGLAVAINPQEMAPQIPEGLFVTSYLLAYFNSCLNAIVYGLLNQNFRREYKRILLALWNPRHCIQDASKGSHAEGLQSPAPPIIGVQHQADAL
UniProt O00238, sequence (whole entry, looked up): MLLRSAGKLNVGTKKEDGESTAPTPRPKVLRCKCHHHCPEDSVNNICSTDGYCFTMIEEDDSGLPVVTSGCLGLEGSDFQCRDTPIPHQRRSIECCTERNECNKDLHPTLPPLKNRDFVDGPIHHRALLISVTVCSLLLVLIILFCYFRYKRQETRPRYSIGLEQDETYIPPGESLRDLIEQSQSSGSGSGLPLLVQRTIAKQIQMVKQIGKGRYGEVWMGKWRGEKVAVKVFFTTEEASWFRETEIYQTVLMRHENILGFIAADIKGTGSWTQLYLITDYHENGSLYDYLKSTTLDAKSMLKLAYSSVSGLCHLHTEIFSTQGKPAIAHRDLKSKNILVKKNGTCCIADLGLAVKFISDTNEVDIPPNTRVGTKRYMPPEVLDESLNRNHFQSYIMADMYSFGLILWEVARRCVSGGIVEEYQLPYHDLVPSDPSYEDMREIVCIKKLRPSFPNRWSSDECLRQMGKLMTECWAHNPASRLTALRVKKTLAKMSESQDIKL
UniProt Q8TDX7, sequence (whole entry, looked up): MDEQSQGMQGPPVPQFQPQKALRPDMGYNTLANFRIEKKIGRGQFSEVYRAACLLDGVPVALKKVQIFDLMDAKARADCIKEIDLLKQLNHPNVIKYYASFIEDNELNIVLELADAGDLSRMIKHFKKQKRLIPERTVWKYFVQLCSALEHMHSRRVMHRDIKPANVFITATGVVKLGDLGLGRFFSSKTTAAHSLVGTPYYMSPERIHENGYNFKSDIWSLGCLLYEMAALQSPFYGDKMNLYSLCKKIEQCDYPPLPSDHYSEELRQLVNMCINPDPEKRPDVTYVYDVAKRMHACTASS

| SMILES | target | assay | test system | conditions | endpoint | result |
| --- | --- | --- | --- | --- | --- | --- |
| CCCCC(=O)Nc1ccc(-c2ccc3ncn(CCC)c(=O)c3c2)cn1 | EPHB3 (Homo sapiens, UniProt P54753) | binding, competition with immobilised ligand | – | 0.5 µM | remaining binding | 100% |
| C=CC(=O)N1CCC(COCC(=O)N2CCN(c3nc(-c4cnc(N)nc4C(F)F)nc(N4CCOC[C@@H]4C)n3)CC2)CC1 | TLK2 (Homo sapiens, UniProt Q86UE8) | binding, competition with immobilised ligand | – | 1 µM | remaining binding | 100% |
| CNc1ncc2c(/C=C/C(=O)N3CCC(OC)CC3)nn(Cc3cccc(C(F)(F)F)c3)c2n1 | NEK7 (Homo sapiens, UniProt Q8TDX7) | enzyme activity, inhibitor, radiometric | – | 1 µM | remaining activity | 112% |
| C1=C/COCc2cc(ccc2OCCN2CCCC2)Nc2nccc(n2)-c2cccc(c2)COC/1 | BMPR1B (Homo sapiens, UniProt O00238) | binding | – | 0.1 µM | remaining binding | 57% |
| COc1ccc2ncn(CCNC(C)=O)c2c1 | MTNR1B (Homo sapiens, UniProt P49286) | cAMP, agonist, TR-FRET | CHO-K1 | 20 min | Emax | 60% |
| Cc1cc([C@@H](C)Nc2ccccc2C(=O)O)c2nc(N3CCC(F)(F)CC3)c(C#N)c(=O)n2c1 | CDK16 (Homo sapiens, UniProt Q00536) | binding, competition with immobilised ligand | – | 10 µM | remaining binding | 64% |
| COc1cc(-c2cncc3c2CN(C)Cc2cc(N4CCNCC4)ccc2-3)cc(OC)c1OC | DYRK1A (Homo sapiens, UniProt Q13627) | enzyme activity, inhibitor | – | 1 µM | remaining activity | 113% |
| Nc1ncnc2occ(-c3ccc(NC(=O)Nc4cc(C(F)(F)F)ccc4F)cc3)c12 | TIE1 (Homo sapiens, UniProt P35590) | cell-free assay | – | 20 µM | remaining signal | 0% |
| CCC(=O)NC1Cc2ccccc2C(c2ccccc2)C1 (stereo not drawn) | MTNR1A (Homo sapiens, UniProt P48039) | cAMP, agonist, TR-FRET | CHO-K1 | 20 min | Emax | 48% |

Repeated from above:
| SMILES | target | assay | test system | conditions | endpoint | result |
| --- | --- | --- | --- | --- | --- | --- |
| Nc1ncnc2occ(-c3ccc(NC(=O)Nc4cc(C(F)(F)F)ccc4F)cc3)c12 | TIE1 (Homo sapiens, UniProt P35590) | cell-free assay | – | 20 µM | remaining signal | 0% |
